Measured values collected from several papers.
Every numbered part comes from another study and shows a few of its results, in no order. Substitutions count along the parent as printed.

Series 1
Target: ABI1, truncated, D143A, DHFR fusion (Arabidopsis thaliana)
Technique: DHFR PCA, deep sequencing
Matrix: yeast
Setting: methotrexate growth selection, single substitutions
Added: (+)-ABA 200 µM
Relative to: wild-type fitted maximum
Reading: higher = stronger binding
Parent: PYL1, truncated, DHFR fusion (Arabidopsis thaliana); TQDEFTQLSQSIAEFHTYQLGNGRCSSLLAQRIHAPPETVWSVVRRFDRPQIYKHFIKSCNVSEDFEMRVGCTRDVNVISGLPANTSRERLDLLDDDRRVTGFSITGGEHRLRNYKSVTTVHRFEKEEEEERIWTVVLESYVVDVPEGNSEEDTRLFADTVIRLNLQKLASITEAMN
Under “relative binding score”, `Q31E` is recorded as 82.4%.
`V62Q`: “relative binding score” 48.4%.
`N61L`: “relative binding score” 99.7%.
Under “relative binding score”, `A35S` is recorded as 88.4%.
`W134M` — result for “relative binding score”: 107%.
Under “relative binding score”, `Y18W` is recorded as 94.9%.
`E129K`: “relative binding score” 113%.
`H16E` — result for “relative binding score”: -10.1%.
`D3K` — result for “relative binding score”: 96.8%.
`F124N`: “relative binding score” 89.9%.
For `G81P`, “relative binding score” read 40.1%.
`L20V` — result for “relative binding score”: 104%.
Under “relative binding score”, `H34G` is recorded as 95.5%.
`F5R`: “relative binding score” 96.8%.
For `S87M`, “relative binding score” read 12.7%.
For `T17H`, “relative binding score” read 94.9%.

Series 2
Target: RNA binding protein fox-1 homolog 2, RRM domain, GST-SBP tag (RBFOX2, Homo sapiens, UniProt O43251-10, residues 100-194)
Technique: RNA Bind-n-Seq
Molecule type: RNA
Matrix: in vitro
Concentration: 365 nM
Setting: natural RNA segment, single round, ends assumed
Relative to: no-protein control
Reading: higher = stronger binding
Target sequence (chain): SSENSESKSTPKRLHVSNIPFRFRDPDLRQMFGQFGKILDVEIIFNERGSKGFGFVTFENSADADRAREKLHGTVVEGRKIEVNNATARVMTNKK
For `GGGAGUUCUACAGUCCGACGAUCUAAGUGUUGAUUAUAUGUGCUGGGUCUCUAGAGAAGUUUUUAUUUGUUACAAUACUGCUGCUUUGAGCAAUUUUGUUUCUCUUCAUUGUCUGUUAGGGAAAUCACCAGCUUGGAAUUCUCGGGUGCCAA`, “RBNS enrichment (R)” read 0.775.
`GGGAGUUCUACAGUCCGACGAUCGAAGAUGGGCAACAAAGAGCCAGGGAGUCAUGGACAUCGCAGCGACGCAGACCCCAGCAGGUUCAGUCCCGUGCUGCCACCAGCUGUCCAGCUGGGUGUCUGGAGGGAAGUGGAAUUCUCGGGUGCCAA` — result for “RBNS enrichment (R)”: 0.476.
`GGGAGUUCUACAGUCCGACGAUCACCCCCAUUCUUUCCAAGUCAGAUAGUCUUCUGCUGCUGGUACCUGGGUGGGCAAUGGCCACCAUGUCUGCACACACCAGAAAUGGACAUUUUCAUAUGCAAUGGAAAACUGGAAUUCUCGGGUGCCAA`: “RBNS enrichment (R)” 0.514.
`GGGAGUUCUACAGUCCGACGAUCUGUCUGAAGUGCCUUGGGGGCACCCUCAUUUUGUUUCCAUUCCAACAACGAGAACAGAGAUGUUCUGGCAUCAUUUACGUAGUUUACGCUACCAAUCUGAAUUCGAGGCCUGGAAUUCUCGGGUGCCAA`: “RBNS enrichment (R)” 0.27.
`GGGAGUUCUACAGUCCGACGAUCGCAGGGUGCGCGAAUGCGCAAGCGCCGGGCAGAGUCCCGUGCGGCUUCUGCUGUGGGACGUGGGCCAGGCACCCUCAUUCUCUGGGCAUCUCUGCUGCAAGUGGACAAGAUGGAAUUCUCGGGUGCCAA` — result for “RBNS enrichment (R)”: 0.295.
Under “RBNS enrichment (R)”, `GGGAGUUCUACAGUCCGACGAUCACCAGCACUGCCGUGGGUCUCCUCACAUGGUCAAACGGAACACGGGGGGUUAGGCCUGUGUGCCCCCUCAACCCAUAACUGCUGUCAAACAAAGCAAACCUUGUAAAGUGUGGAAUUCUCGGGUGCCAA` is recorded as 0.768.
`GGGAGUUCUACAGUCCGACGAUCCAAGGCCCGGUGGUUGACAUCUGUGUGGUUUGUUAGAUGAGACAAAAUGACCAUUAAAUGAGUUUAUAGAUUAUUCUGUAUCAAGAUAAAUCUGAUUCCAGUUAAGCUAUUGGAAUUCUCGGGUGCCAA` — result for “RBNS enrichment (R)”: 0.467.
`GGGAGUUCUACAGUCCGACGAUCGAGGCAGAGCCUGAUGACGAUCAUUUUUCCAUUGGCGUGAGCUCCCGCCUGGAUGGACUGAGGAAUCGUGGGCCAGGCUGCACCUGGGAUUCCUUGCGGAAUUCUGUGGGUGGAAUUCUCGGGUGCCAA`: “RBNS enrichment (R)” 0.579.
For `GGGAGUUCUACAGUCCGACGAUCUCCUUGGGGUUCCCCCUCCCUGUGUGAAAUGUAUUAUCACCAGCAGACACUGCCGGGCCUCCCUCCCGGGGGCACUGCCUGAAGGCGAGUGUGGGCAUAGCAUUAGCUGCUGGAAUUCUCGGGUGCCAA`, “RBNS enrichment (R)” read 0.412.
For `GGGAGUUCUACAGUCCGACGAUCUGGAUGUCCAGGCAAGACUGGGCGAAGUUUCUGAGUGGCCCUUUGUUUAGGUGACGUCCUCAGACCUGGACCCCCACCAGCCUCACUCCUCAUCCCAACCAGAGGUGGCAUGGAAUUCUCGGGUGCCAA`, “RBNS enrichment (R)” read 0.457.
`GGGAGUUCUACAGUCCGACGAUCAUCGGCCUCUGCUUGUACAUCCAUCCCACCCAGCAGUCGCCGAACAUCAUAGUCGGGAGCCAUUUCACCCUGUUUUUCCAGGACUGAACACCAGCUGCUGUCAAGCAAGCUGGAAUUCUCGGGUGCCAA`: “RBNS enrichment (R)” 0.331.
`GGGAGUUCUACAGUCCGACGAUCAUCUCAGCCAGAGGCCAGAUGUUCUUAGAACUGACUUGACCUGAGCAGACCCCCUAACCCUUCAGACAGGCAGUGUUUAUUUAAUGCGUAGAGUGCAGAGGGGCUCUUUUUGGAAUUCUCGGGUGCCAA`: “RBNS enrichment (R)” 0.301.

Series 3
Target: Interferon regulatory factor 5, full length, phosphomimetic (IRF5, Homo sapiens, UniProt Q13568-2, residues 1-514, S451D/S453D/S456D/S462D)
Technique: protein-binding microarray
Molecule type: double-stranded DNA, one strand shown
Matrix: in vitro
Concentration: 940 nM top
Setting: 60-bp whole probe
Added: salmon DNA 0.4 mg/ml
Relative to: random background probes
Reading: higher = stronger binding
Constant ends, left off below: GCCTAGCAC … GTCTTGATTCGCTTGACGCTGCTG
`GATGGTTTCGGTTTCGGGACGTGCTAG` — result for “fitted relative affinity”: 15.2 z-score.
For `GACGGTTTCGGTCTAGGGACGTGCTAG`, “fitted relative affinity” read 13.9 z-score.
For `GACGGTATCGGATTGGGGACGTGCTAG`, “fitted relative affinity” read 3.95 z-score.
`AACGATTTCGGGTTTCGAGACGTGCTA` — result for “fitted relative affinity”: 2.26 z-score.
Under “fitted relative affinity”, `TTAGGTTCCCTTTTCCTTCAGTGCTAG` is recorded as 0.917 z-score.
`ATAGGACTGCTTCTCCTTTAGTGCTAG` — result for “fitted relative affinity”: -0.0219 z-score.
`TTAGGTTTCTTTATCCTTTAGTGCTAG` — result for “fitted relative affinity”: 2.86 z-score.
For `TCATTTTTCTGATTGAAACTGTGCTAG`, “fitted relative affinity” read 0.581 z-score.
`ATCCATCTCAAGTAGCCTAGCGTGCTA` — result for “fitted relative affinity”: 0.189 z-score.
`GACGGTATGCTTATCCTGACGTGCTAG`: “fitted relative affinity” -0.382 z-score.
`TTCCTTGCTATGTTGCTCAGGTGCTAG`: “fitted relative affinity” 0.534 z-score.
Under “fitted relative affinity”, `TTACGACTGGACTATCGGTTAGTGCTA` is recorded as 0.393 z-score.
For `TCAATTATTGTTTCCTTACTGTGCTAG`, “fitted relative affinity” read 1.05 z-score.
For `TTAGGTGTCGGTTCCGGTTAGTGCTAG`, “fitted relative affinity” read 2.2 z-score.
Under “fitted relative affinity”, `TTAAGACTGCTACTGCTTTAGTGCTAG` is recorded as -0.302 z-score.
Under “fitted relative affinity”, `ATTTTGAGGTGGAGAGATAAGTGCTAG` is recorded as -0.101 z-score.
`TTAGGGTTCGACACTGGGTTAGTGCTA` — result for “fitted relative affinity”: -0.0256 z-score.
Under “fitted relative affinity”, `GACGGTCTCTGACTGGGGACGTGCTAG` is recorded as -0.245 z-score.
`TTAGAACTGAGTATCGATTTGTGCTAG` — result for “fitted relative affinity”: 4 z-score.
Under “fitted relative affinity”, `TTAGATCTTAGTCTCGATTAGTGCTAG` is recorded as 3.18 z-score.
Under “fitted relative affinity”, `TTAGAACTGGGGTTACGATTAGTGCTA` is recorded as 0.136 z-score.
`TTAGGTTTCGACTTTCGGTGAGTGCTA` — result for “fitted relative affinity”: 8.53 z-score.
For `GACGGTATCGGTATTGGGACGTGCTAG`, “fitted relative affinity” read 7.69 z-score.
`TTAGAACTGGGGTTTCGCTTAGTGCTA`: “fitted relative affinity” 2.74 z-score.
For `TCAAATCTCCCATTATAACTGTGCTAG`, “fitted relative affinity” read 0.996 z-score.

Series 4
Target: CCNB3, cyclin fold, Cln2 fusion (human)
Technique: yeast growth competition, sequencing
Matrix: yeast
Setting: weak parent motif
Relative to: not given
Reading: higher = stronger binding
Parent: RBL1 docking peptide (human); GSAKRRLFGEDPP
`P13S`: “normalised enrichment score” 0.357.
`L7Y`: “normalised enrichment score” 0.112.
For `A3M`, “normalised enrichment score” read 0.053.
Under “normalised enrichment score”, `G9D` is recorded as 1.01.
`G1L` — result for “normalised enrichment score”: 1.28.
For `D11M`, “normalised enrichment score” read 0.56.
Under “normalised enrichment score”, `L7K` is recorded as 0.096.
Under “normalised enrichment score”, `S2L` is recorded as 0.41.
For `A3C`, “normalised enrichment score” read 1.11.
`L7Q` — result for “normalised enrichment score”: 0.18.
`S2I`: “normalised enrichment score” 0.544.
`R5C` — result for “normalised enrichment score”: 0.147.
`E10N` — result for “normalised enrichment score”: 0.595.
`E10I` — result for “normalised enrichment score”: 0.778.
For `S2T`, “normalised enrichment score” read 0.557.
For `D11C`, “normalised enrichment score” read 0.656.
Under “normalised enrichment score”, `G9Y` is recorded as 0.657.
`P13L`: “normalised enrichment score” 0.864.
`G1K` — result for “normalised enrichment score”: 0.935.
`A3R`: “normalised enrichment score” 0.338.
Under “normalised enrichment score”, `E10V` is recorded as 0.122.
`G1V`: “normalised enrichment score” 1.29.
`G9L`: “normalised enrichment score” 1.09.
For `R5K`, “normalised enrichment score” read 0.172.
Under “normalised enrichment score”, `D11F` is recorded as 0.28.

Excerpt of the above (series 2):
`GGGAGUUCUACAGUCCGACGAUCGAGGCAGAGCCUGAUGACGAUCAUUUUUCCAUUGGCGUGAGCUCCCGCCUGGAUGGACUGAGGAAUCGUGGGCCAGGCUGCACCUGGGAUUCCUUGCGGAAUUCUGUGGGUGGAAUUCUCGGGUGCCAA`: “RBNS enrichment (R)” 0.579.
For `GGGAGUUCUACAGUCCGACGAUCUGGAUGUCCAGGCAAGACUGGGCGAAGUUUCUGAGUGGCCCUUUGUUUAGGUGACGUCCUCAGACCUGGACCCCCACCAGCCUCACUCCUCAUCCCAACCAGAGGUGGCAUGGAAUUCUCGGGUGCCAA`, “RBNS enrichment (R)” read 0.457.
Under “RBNS enrichment (R)”, `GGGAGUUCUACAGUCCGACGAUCACCAGCACUGCCGUGGGUCUCCUCACAUGGUCAAACGGAACACGGGGGGUUAGGCCUGUGUGCCCCCUCAACCCAUAACUGCUGUCAAACAAAGCAAACCUUGUAAAGUGUGGAAUUCUCGGGUGCCAA` is recorded as 0.768.
`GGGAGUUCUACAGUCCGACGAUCAUCGGCCUCUGCUUGUACAUCCAUCCCACCCAGCAGUCGCCGAACAUCAUAGUCGGGAGCCAUUUCACCCUGUUUUUCCAGGACUGAACACCAGCUGCUGUCAAGCAAGCUGGAAUUCUCGGGUGCCAA`: “RBNS enrichment (R)” 0.331.
